Experimental data collected from several papers.
Each numbered part is a random draw from the data of one study; scales do not carry over between parts. Values joined by “and” are separate records of one study, mostly repeats; a detail may differ.

Study 1
Target: Testis-specific serine/threonine-protein kinase 1 (TSSK1B, Homo sapiens, UniProt Q9BXA7)
Observed: enzyme activity
Mode: inhibitor
Tested at: 0.5 µM
Baseline: control
Measurement: remaining activity
Target sequence (Q9BXA7 1-367): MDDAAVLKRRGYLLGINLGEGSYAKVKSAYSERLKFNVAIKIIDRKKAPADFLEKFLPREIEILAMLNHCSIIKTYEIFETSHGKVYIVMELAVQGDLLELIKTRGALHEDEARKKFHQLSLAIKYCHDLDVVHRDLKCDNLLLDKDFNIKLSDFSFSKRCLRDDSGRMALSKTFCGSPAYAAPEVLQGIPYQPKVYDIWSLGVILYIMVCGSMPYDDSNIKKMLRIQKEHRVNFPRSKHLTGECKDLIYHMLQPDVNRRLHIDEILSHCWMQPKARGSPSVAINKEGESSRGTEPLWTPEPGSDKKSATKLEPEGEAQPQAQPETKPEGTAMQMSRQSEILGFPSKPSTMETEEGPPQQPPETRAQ
Cc1cncc2cccc(S(=O)(=O)N3CCCN(C(=O)CN)C[C@@H]3C)c12: 103%
Nc1ncnc2c1cnn2-c1ccccc1: 84.1%
CSc1nc(-c2ccnc(N[C@@H](C)c3ccccc3)c2)c(-c2ccc(F)cc2)[nH]1 (racemic): 73.5%
COc1ccc(S(=O)(=O)N(CCO)c2ccccc2CN(C)CC=Cc2ccc(Cl)cc2)cc1: 103%
Oc1ccc(Nc2nc(-c3ccc(Cl)cc3)cs2)cc1: 119%
CC(=O)c1ccc(N2CCOCC2)cc1O: 107%
O=C1Cc2c([nH]c3ccc([N+](=O)[O-])cc23)-c2ccccc2N1: 74.7%
O=S(=O)(NCCNC/C=C/c1ccc(Br)cc1)c1cccc2cnccc12: 93.5%
Fc1ccc(-c2nc3n(c2-c2ccncc2)CCS3)cc1: 119%
NC(=O)c1ccc(N(C(N)=O)c2c(F)cccc2F)nc1-c1ccc(F)cc1F: 83%
Cc1cc(Nc2nc(-c3ccccc3)nc3ccccc23)n[nH]1: 76.7%

Study 2
Target: Calcium/calmodulin-dependent protein kinase type II subunit alpha (CAMK2A, Homo sapiens, UniProt Q9UQM7)
Chain of UniProt Q9UQM7 (whole entry, looked up): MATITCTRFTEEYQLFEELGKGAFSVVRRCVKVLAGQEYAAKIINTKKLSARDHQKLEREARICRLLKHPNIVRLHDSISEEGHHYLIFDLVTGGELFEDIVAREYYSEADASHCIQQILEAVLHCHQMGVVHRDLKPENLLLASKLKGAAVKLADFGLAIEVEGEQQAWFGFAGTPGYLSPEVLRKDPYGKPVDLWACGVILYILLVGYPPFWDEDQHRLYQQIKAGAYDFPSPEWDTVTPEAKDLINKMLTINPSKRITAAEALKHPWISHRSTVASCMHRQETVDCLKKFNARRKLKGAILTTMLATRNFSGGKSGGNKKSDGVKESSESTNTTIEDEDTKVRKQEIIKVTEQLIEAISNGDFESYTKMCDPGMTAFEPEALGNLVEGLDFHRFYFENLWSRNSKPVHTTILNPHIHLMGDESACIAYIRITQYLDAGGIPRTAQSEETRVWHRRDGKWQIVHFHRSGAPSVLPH
Observed: enzyme activity
Mode: inhibitor
Tested at: 10 µM
Measurement: inhibition
CCCCC(CC)CCC(CC(C)C)OS(=O)(=O)O (stereo not shown): 11%
O=C(O)C[C@H](C(=O)O)[C@H]1c2c(cc(O)c(O)c2O)C(=O)O[C@@H]1C(=O)O: -37%
CO/N=C(\C(=O)N[C@@H]1C(=O)N2C(C(=O)O)=C(CSC(=O)c3ccco3)CS[C@H]12)c1csc(N)n1: -5%
C[C@@]12C[C@H](c3ccoc3)O[C@@]13C[C@H](OC3=O)[C@H]1[C@H]2C[C@@H]2C[C@H]1C(=O)O2: -18%
O=C(CO)[C@@H](O)[C@H](O)[C@H](O)COP(=O)(O)O: -8%
O=C1O[C@H]([C@@H](O)CO)[C@H](O)[C@@H]1O: -15%
COc1cccc(CCc2ccccc2OCC(CN(C)C)OC(=O)CCC(=O)O)c1 (stereo not shown): -3%
O=C(/C=C/c1ccc(O)c2c1[C@H](C(=O)O)[C@@H](c1ccc(O)c(O)c1)O2)O[C@H](Cc1ccc(O)c(O)c1)C(=O)O: 1%
C=C1CCC2(C(C)C)CC12 (stereo not shown): 2%
C=CCc1ccc(O)c(-c2ccc(OC)c(CC=C)c2)c1: -22%
CC(=O)NCCCCN: -22%
NCc1ccc(C(=O)O)cc1: 0%
O=Cc1cccs1: 28%
C[C@@H]1CC[C@@]2(OC1)O[C@H]1C[C@H]3[C@@H]4CC=C5C[C@@H](O[C@@H]6O[C@H](CO)[C@@H](O)[C@H](O)[C@H]6O[C@@H]6O[C@@H](C)[C@H](O)[C@@H](O)[C@H]6O)CC[C@]5(C)[C@H]4CC[C@]3(C)[C@@]1(O)[C@@H]2C: -12%
C[C@@H]1CC[C@]2(C(=O)O)CC[C@]3(C)C(=CC[C@@H]4[C@@]5(C)CC[C@H](O)[C@](C)(C(=O)O)[C@@H]5CC[C@]43C)[C@@H]2[C@]1(C)O: -24%

Study 3
SMILES: CC(=O)N[C@@H](Cc1c[nH]c2ccccc12)C(=O)N[C@@H](CCC(=O)C=[N+]=[N-])C(=O)OC(C)C
Route: subcutaneous
Time: 5 days
Measurement: metabolite peak intensity
UPLC-MS/MS, refers to: histidine; EL4, C57BL/6 CES1-/- mice, EL4 tumour, tumour; 0.3 mg/kg/day DON equivalent, normalised to tissue mass; higher = more metabolite: 1.66e+07 a.u. and 1.77e+07 a.u. and 1.87e+07 a.u. and 1.31e+07 a.u. and 1.41e+07 a.u. and 1.18e+07 a.u.
UPLC-MS/MS metabolomics, refers to: N2,N2-dimethylguanosine; C57BL/6 CES1-/- mice, EL4 tumour, EL4 tumour; 0.3 mg/kg/day DON equivalent, normalised to tissue mass; higher = more metabolite: 645000 a.u. and 415000 a.u. and 613000 a.u. and 801000 a.u. and 530000 a.u. and 713000 a.u.
UPLC-MS/MS metabolomics, refers to: gamma-glutamylthreonine; C57BL/6 CES1-/- mice, EL4 tumour, EL4 tumour; 0.3 mg/kg/day DON equivalent, normalised to tissue mass: 961000 a.u. and 665000 a.u. and 1.13e+06 a.u. and 1.24e+06 a.u. and 1.03e+06 a.u.
LC-MS/MS, refers to: S-methylcysteine sulfoxide; C57BL/6 CES1-/- mice, EL4 tumour; 0.3 mg/kg DON equivalent: 252000 a.u. and 46100 a.u. and 129000 a.u. and 59200 a.u. and 515000 a.u. and 443000 a.u.
UPLC-MS/MS metabolomics, refers to: N-methyl-GABA; C57BL/6 CES1-/- mice, EL4 tumour, EL4 tumour; 0.3 mg/kg/day DON equivalent, normalised to tissue mass; higher = more metabolite: 1.84e+06 a.u. and 3.9e+06 a.u. and 3.03e+06 a.u. and 1.46e+06 a.u. and 3.16e+06 a.u. and 2.9e+06 a.u.
LC-MS/MS metabolomics, refers to: 3-phosphoglycerate; C57BL/6 CES1-/- mice, EL4 tumour, EL4 tumour; 0.3 mg/kg/day DON equivalent, normalised to tissue mass; higher = more metabolite: 329000 a.u. and 510000 a.u. and 815000 a.u. and 718000 a.u. and 536000 a.u. and 490000 a.u.
LC-MS/MS metabolomics, refers to: mesaconate; C57BL/6 CES1-/- mice, EL4 tumour, EL4 tumour; 0.3 mg/kg/day DON equivalent; higher = more metabolite: 1.37e+07 a.u. and 1.19e+07 a.u. and 6.39e+06 a.u. and 5.04e+06 a.u. and 7.81e+06 a.u. and 4.98e+06 a.u.
UPLC-MS/MS metabolomics, refers to: oxidised glutathione (GSSG); C57BL/6 CES1-/- mice, EL4 tumour, EL4 tumour; 0.3 mg/kg/day DON equivalent, normalised to tissue mass: 5.51e+07 a.u. and 3.59e+07 a.u. and 5.33e+07 a.u. and 3.6e+07 a.u. and 6.32e+07 a.u. and 6.12e+07 a.u.
UPLC-MS/MS, refers to: homocysteine; EL4, C57BL/6 CES1-/- mice, EL4 tumour, tumour; 0.3 mg/kg/day DON equivalent, normalised to tissue mass; higher = more metabolite: 322000 a.u. and 379000 a.u. and 246000 a.u. and 154000 a.u.
UPLC-MS/MS metabolomics, refers to: gamma-glutamylleucine; C57BL/6 CES1-/- mice, EL4 tumour, EL4 tumour; 0.3 mg/kg/day DON equivalent, normalised to tissue mass: 1.57e+06 a.u. and 1.91e+06 a.u. and 1.74e+06 a.u. and 1.85e+06 a.u. and 971000 a.u. and 1.79e+06 a.u.

Study 4
Target: Beta-1 adrenergic receptor (ADRB1, Homo sapiens, UniProt P08588)
Chain of UniProt P08588 (whole entry, looked up): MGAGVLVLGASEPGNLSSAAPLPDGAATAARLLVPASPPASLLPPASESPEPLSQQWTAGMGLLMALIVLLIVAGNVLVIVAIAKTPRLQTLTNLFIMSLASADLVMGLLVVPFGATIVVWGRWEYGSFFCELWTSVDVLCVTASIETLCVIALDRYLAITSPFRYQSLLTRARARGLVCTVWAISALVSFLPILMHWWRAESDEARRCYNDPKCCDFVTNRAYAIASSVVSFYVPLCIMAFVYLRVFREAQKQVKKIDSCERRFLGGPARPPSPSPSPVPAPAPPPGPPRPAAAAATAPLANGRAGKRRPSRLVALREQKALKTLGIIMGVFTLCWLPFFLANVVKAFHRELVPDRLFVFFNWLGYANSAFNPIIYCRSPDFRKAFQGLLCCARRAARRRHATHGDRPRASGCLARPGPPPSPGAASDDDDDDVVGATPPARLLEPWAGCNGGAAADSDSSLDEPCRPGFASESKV
Observed: binding
Technique: radioligand binding
Tested at: 10 µM
Measurement: inhibition
O[C@]1(C(F)(F)F)CCCC[C@H]1Nc1ccc(F)cc1: 20.2%
Nc1c(C(=O)NCc2ccc(C(=O)NCCCC3CCCCC3)cc2)cnn1-c1ccccc1: 25.3%
C[C@@]1(Cc2ccc(C#N)cc2)C(=O)N(c2cc(Cl)cc(Cl)c2)c2ncc(C(=O)NC3(c4nc(C5CCC5)no4)CC3)n21: 29.7%
COCCc1ccc(-c2c(C)nc3c(N4CCOCC4)ccnn23)cn1: 3.43%
O=C1c2ccc(Nc3ccc(F)cc3F)cc2CCc2ccc(OC[C@H](O)CO)cc21: 30.4%
COc1cccc(CNC(=O)c2nc3scc(COCc4ccc(C(=O)O)cc4)c3c(=O)[nH]2)c1: 29.9%
CS(=O)(=O)NCC[C@H](NC(=O)c1cncc2c1cnn2-c1ccc(F)cc1)c1ccnc(S(C)(=O)=O)c1: -20.5%
Cc1c[nH]c2nccc(Oc3c(F)cc(Nc4cc(Cl)nc(N)n4)cc3F)c12: 6.86%
Cc1nccc(COC(=O)N2C[C@@H]3[C@@H](CNC(=O)c4ccc5[nH]nnc5c4)[C@@H]3C2)n1: 12.4%
O=C([C@H]1C[C@H](O)CN1c1ccc(Cl)cc1)N1CC2COCC(C1)N2Cc1ccc(Cl)cc1: 6.12%
Cc1cc(C)c(-n2ccn3nc(-c4cccnc4)cc23)cc1NC(=O)c1cc(C#N)cc(S(F)(F)(F)(F)F)c1: 9.41%
CC(=O)Nc1c(F)cc(C(=O)N[C@H]2CC[C@H](O)CC2)cc1O[C@@H](C)c1ccccc1: -6.85%
O=C(O)c1cc(-c2ccc(C3CCNCC3)cc2)c2ccc(-c3ccc(C(F)(F)F)cc3)cc2c1: 24.7%
Cc1c(NC(=O)c2cc(C(N)=O)nc3cc(F)ccc23)c(C(F)(F)F)nn1Cc1ccc(C(C)(C)C)cc1: 21.2%
CC(C)CC(=O)N1CCc2nc(-c3ccc(Br)cc3)nc(N(C)Cc3ccccc3)c2C1: 29.5%
O=C1CCc2cc(Nc3cc(OC4CCOCC4)c([N+](=O)[O-])cc3Cl)ccc2N1: 3.3%
CCOC(=O)c1cc2cc(-c3cc(C(=O)NCc4ccc(C(=O)O)cc4)nn3C)ccc2[nH]1: -5.04%
Cc1nc(C2CCN(C(=O)c3ccc(OC(F)(F)F)cc3N)CC2)c2ncc(N3CCN(C)CC3)cc2n1: 17.9%
Cc1c(N2CCCC2)nc2ccc(Br)cc2c1C(=O)NC[C@H](CCC(=O)O)c1ccccc1Cl: 15.7%

Excerpt of the above (study 4):
CS(=O)(=O)NCC[C@H](NC(=O)c1cncc2c1cnn2-c1ccc(F)cc1)c1ccnc(S(C)(=O)=O)c1: -20.5%
Cc1c[nH]c2nccc(Oc3c(F)cc(Nc4cc(Cl)nc(N)n4)cc3F)c12: 6.86%
Cc1nccc(COC(=O)N2C[C@@H]3[C@@H](CNC(=O)c4ccc5[nH]nnc5c4)[C@@H]3C2)n1: 12.4%
O=C([C@H]1C[C@H](O)CN1c1ccc(Cl)cc1)N1CC2COCC(C1)N2Cc1ccc(Cl)cc1: 6.12%
Cc1cc(C)c(-n2ccn3nc(-c4cccnc4)cc23)cc1NC(=O)c1cc(C#N)cc(S(F)(F)(F)(F)F)c1: 9.41%
CC(=O)Nc1c(F)cc(C(=O)N[C@H]2CC[C@H](O)CC2)cc1O[C@@H](C)c1ccccc1: -6.85%
O=C(O)c1cc(-c2ccc(C3CCNCC3)cc2)c2ccc(-c3ccc(C(F)(F)F)cc3)cc2c1: 24.7%
Cc1c(NC(=O)c2cc(C(N)=O)nc3cc(F)ccc23)c(C(F)(F)F)nn1Cc1ccc(C(C)(C)C)cc1: 21.2%
